Published values of several laboratories.
Parts stem from different laboratories: compare values within a part only.

Sample 1
Target: RNA binding protein fox-1 homolog 2, RRM domain, GST-SBP tag (RBFOX2, Homo sapiens, UniProt O43251-10, residues 100-194)
Method: RNA Bind-n-Seq
Molecule type: RNA
Sample: in vitro
Concentration: 365 nM
Setting: natural RNA segment, single round, ends assumed
Relative to: no-protein control
Reading: higher = stronger binding
Construct (chain): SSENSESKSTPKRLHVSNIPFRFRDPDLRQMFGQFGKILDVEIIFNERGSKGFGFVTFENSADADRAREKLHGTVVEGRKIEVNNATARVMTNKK
| Strand | RBNS enrichment (R) |
| --- | --- |
| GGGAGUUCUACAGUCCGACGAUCUCCGCCACCAGCGGACCCACGCAGCCGGCCGCCGUUAACCAGUCACGGGUGGGGAGGUGGUGUGCAGAAGAGAUGGGGUCAAGGAAUUUAUGGAUAGAGGAAAAGCUGGUUGGAAUUCUCGGGUGCCAA | 0.677 |
| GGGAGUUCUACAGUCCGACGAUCUCCAUGCUUUUUCUAUCCCAUCCUCUCUCUGUGCCCUCCUGCAAUGGCAGCCUUGGCACAAUGCCUGGGUGUCCUCAUCCUUGCUUUACUCUGGAAAGUGUGGGGAUGGAUGGAAUUCUCGGGUGCCAA | 0.745 |
| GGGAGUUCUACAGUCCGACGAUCUCCCACCCAAGGAGAACGUUUGGUACAAUCGACAUCCUAGCCCCACCCAGAGGUGGCCCUCCCAGGCUGGUAUUUAUCUGCAAGGUUGUAGUCAAGAGGUUUUUCUCCCCUGGAAUUCUCGGGUGCCAA | 0.372 |
| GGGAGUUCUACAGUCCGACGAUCCUGAAGAUUGUUUAUCUUAUCUAGAUGUAAAUUUUUAUUAAAAAGUUGCACUUAUGAAAAAGCAAAAUACUAGUCUGACAGAUGUUUGCUCCGGUUUUAAAUUUCGACACUGGAAUUCUCGGGUGCCAA | 0.512 |
| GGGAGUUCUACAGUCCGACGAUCUCUGGGCCUUUUUAAAAACAUAAUUAUAUACUUUAGAAAUACAAGGGAUUCCGAUAUGUCAGGACCUAAAUGGCCUAAGCACCUGUCAAAUUAAAAUUCCAAAAUUCAUUUGGAAUUCUCGGGUGCCAA | 0.322 |
| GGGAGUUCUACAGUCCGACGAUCGGACCCUGCUUUUUCCAGGGGCCGAGGGGCUGCCUUUCCUUUGUGUGUAUUAAGCUUUUCAAACAAUGGAGGGGAUGGAGAGCCCUGGUGUCCUGACGGGAGCCAGGUCGUGGAAUUCUCGGGUGCCAA | 0.306 |
| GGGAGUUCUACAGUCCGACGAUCUUGGGUAAUAAGCUCAAGAGGGUUGACAUUUCAAACUGCCAAAAAUGAAAAUAUUCUAGUUAUUAAACUCUUGGUCUAGAAAUACUUCUGUCUGUAAACUUUGACAUCCAUGGAAUUCUCGGGUGCCAA | 1.15 |
| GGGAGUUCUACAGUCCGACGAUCGGGCUACUGUAUACAGUGUACAAUGUGUAUUUCUUCAACCAUAUAUUUUAAAAAGACGUACAUAGAAACUUAGGCACUUUGCUAUUUCUUUUCUAAACUAUCAAAAACUCUGGAAUUCUCGGGUGCCAA | 0.583 |

Sample 2
Target: Fragile X messenger ribonucleoprotein 1, C-terminal low-complexity region (Fmr1, Mus musculus, UniProt P35922)
Method: RNA Bind-n-Seq
Molecule type: RNA
Sample: in vitro
Concentration: 200 nM
Setting: whole 134-nt RNA, ends assumed
Added: 150 mM LiCl
Relative to: input library
Reading: higher = stronger binding
Each molecule: 7-deaza-guanosine replaces G
| Strand | log2 enrichment |
| --- | --- |
| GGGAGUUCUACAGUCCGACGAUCACCAUGCAGGUGGGCAUCUUUGGGAAGUGGGGGAAGGGGGGGAUAGGGAGGGGGGUAACACUUUGGGAACAGGUGGUCCCAGGUCGUUUCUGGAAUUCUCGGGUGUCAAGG | 1.74 |
| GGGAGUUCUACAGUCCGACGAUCUAACUUUAGAGGAGGAUCUGAUGGAUAUGGCAGUGGACGUGGAUUUGGGGAUGGCUAUAAUGGAUAUGGAGGAGGACCUGGAGGUGGCAAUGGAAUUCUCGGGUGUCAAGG | 0.888 |
| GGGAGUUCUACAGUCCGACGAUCUUCGACGGCGCCGGGCGAGUGGCUGUUGAGCGGCGCCGCGGGAGUUCCGCAGGUUUCCCGUGUUCGCAGCGGAGCCGGAGGCCAGCUGAAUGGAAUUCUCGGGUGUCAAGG | -3.68 |
| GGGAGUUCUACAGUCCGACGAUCUCAAGGGUUAUACACGGAAAGCCGCUGCGCUGGAAGCGAUGAAGGACUACACCAAAGCCAUGGAUGUGUACCAGAAGGCGCUAGACCUGGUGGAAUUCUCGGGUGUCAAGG | -0.461 |
| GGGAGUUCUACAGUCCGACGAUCUUUUCUGUUUGAAACAGUUUUAUACUUUCUGAUAUAGUACUUGAAAUUCUUACCAGAAAAUUACUUUGGAGUUUUGAAGCCUUUAUUAAUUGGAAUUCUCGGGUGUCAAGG | -0.0708 |
| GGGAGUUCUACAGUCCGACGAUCUCCUGUGCUACACAUCGUAUGUACCGAAUCGGGUUUGGGUUUUUUUGGGAAAAAAAGGGAAAGUAUUAUGUUACGCCGUUCGGAUCUGCAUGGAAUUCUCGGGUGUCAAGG | -0.959 |
| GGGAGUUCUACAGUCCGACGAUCCUGUGCUACACAUCGUAUGUACCGAAUCGGUUUUUUUGGGGUUUUUUUGGGGUUUUUUUGGGAAAGUAUUAUGUUACGCCGUUCGGAUCUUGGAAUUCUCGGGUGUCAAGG | 1.19 |
| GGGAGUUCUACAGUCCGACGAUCUACUCUCUCGGGGCUGGAAGCUUCCUGACUGAAGAUCUCUCUGCACUUGGGGUUCUUUCUAGAACAUUUUCUAGUCCCCCAACACCCUUUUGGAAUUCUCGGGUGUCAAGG | -0.515 |

Sample 3
Target: Histone acetyltransferase KAT6A, winged helix 2, GST fusion (KAT6A, Homo sapiens, UniProt Q92794, residues 85-181)
Method: protein binding microarray
Molecule type: double-stranded DNA, one strand shown
Sample: in vitro
Concentration: not given
Setting: 8-mer, flanks averaged, mean of 2 arrays, mostly near background
Relative to: not given
Reading: higher = stronger binding
Target sequence (chain): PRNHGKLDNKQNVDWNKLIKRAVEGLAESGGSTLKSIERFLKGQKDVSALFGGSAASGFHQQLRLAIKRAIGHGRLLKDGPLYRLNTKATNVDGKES
| Strand | E-score |
| --- | --- |
| AAGTGAAG | -0.131 |
| CTTCACCC | 0.152 |
| ATGTGATC | -0.0128 |
| AGACGTGG | -0.121 |
| ACGTACCT | -0.243 |
| ACTGCGCG | 0.0432 |
| CAGTTGCG | 0.103 |
| AGAGCACG | 0.0312 |
| AAAGGAAT | -0.0917 |
| CCGGCCCA | 0.0454 |
| AGTCTACG | -0.324 |
| AACCGCTA | -0.0443 |
| GCTTCGTA | 0.0286 |
| TCCATGGA | 0.00135 |
| AGTCACTC | -0.0528 |
| GAGTCGGC | 0.176 |
| TCACAACA | 0.112 |
| AAAGCGTC | 0.00217 |
| CAAATTAG | -0.0811 |
| CTGGCGAA | 0.0803 |
| AGAGACCG | -0.0478 |
| GGGATGGA | 0.00353 |
| CGTGACGA | 0.126 |
| GCTACTAC | -0.0622 |

Sample 4
Target: RING finger protein unkempt homolog, zinc fingers 1-6, GST-SBP tag (UNK, Homo sapiens, UniProt Q9C0B0, residues 30-357)
Method: RNA Bind-n-Seq
Molecule type: RNA
Sample: in vitro
Concentration: not given
Setting: RNA with constant flanks, ends assumed
Relative to: input RNA pool
Reading: higher = stronger binding
Construct (chain): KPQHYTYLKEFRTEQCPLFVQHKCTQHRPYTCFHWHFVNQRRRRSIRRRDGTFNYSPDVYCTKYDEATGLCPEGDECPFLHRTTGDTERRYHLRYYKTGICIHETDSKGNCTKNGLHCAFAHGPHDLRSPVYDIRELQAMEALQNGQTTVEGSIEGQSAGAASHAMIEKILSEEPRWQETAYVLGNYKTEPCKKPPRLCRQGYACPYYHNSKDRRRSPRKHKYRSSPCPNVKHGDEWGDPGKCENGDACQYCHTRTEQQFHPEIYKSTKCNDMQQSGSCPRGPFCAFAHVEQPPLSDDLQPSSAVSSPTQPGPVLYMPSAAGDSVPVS
| Strand | bound/input enrichment [ratio] |
| --- | --- |
| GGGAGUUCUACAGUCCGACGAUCAAAUUUCCUCUCUUAAAGCCUUCUCCAAAAUUGGCAUCUCUUAUAGAUGGUUCAUCUCCUGUCCGUAUUUUGGUCUGGACCACACAACCUUGGACGAUUCCAGCCAAUGAAGCUGUUUGCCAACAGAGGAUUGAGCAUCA | 0.304 |
| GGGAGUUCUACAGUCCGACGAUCUCCAUGUCAGAAGACAAUCGCCCUUUAACUGGACUUGCAGCUGCAAUUGCCGGAGCAAAACUCCGGAAAGUGUCACGGAUGGAGGAUACCUCUUUCCCAAGUGGAGGGAAUGCUAUUGGUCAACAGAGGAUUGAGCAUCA | 0.123 |
| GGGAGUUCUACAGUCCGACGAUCUUUAUCCAGGGCGAAGCUUUGGACCCGCAGCAUGUCUGCAACCCAGCCAUUUUCAGGCUAACCGCUCGUCAGCUUGCUAAAAUCCAUGCUAUUCAUGCGCACAAUGGCUGGAUCCCCAAACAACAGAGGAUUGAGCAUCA | 0.124 |
| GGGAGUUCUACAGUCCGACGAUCGCUGUGUCCCUGAGUGGUGGCUUUCCCUCCUGUCACGUGACAUCCCAUUCACUCAUCUACACCCGCCCAGUGCUCCCAUUGUCCCCUGCCUCCUCUGUAAUUUUUGCCCCUUCCAGGGUACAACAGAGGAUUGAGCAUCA | 0.15 |
| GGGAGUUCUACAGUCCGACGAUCGAGUGUGUGCUUGUGGAGUGGCGAGAUGGAUCAGAGAAGAACAAAGAGUUUCUUCCUCGAUCCGGAUCUUCUAUUGAGCACAUCUCUGUCUCACCUGCAGGAGAUUUGUUCUGUACUUCUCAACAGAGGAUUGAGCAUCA | 0.0375 |
| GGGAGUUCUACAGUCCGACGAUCCUUGCUUUCUGUAGGAGAAUUGAACAGCACUAUUUUGAAGAUCGUGGUAAAGGCAGGCUGUCACCGAGUUAUGUGUUAGUCUCAGGAGUCUUAACUUUUGAAAUAUGUUUUACUUGAAUGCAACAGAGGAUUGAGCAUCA | 0.308 |
| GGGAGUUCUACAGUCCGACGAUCGAAGAAUUGUAUUUGCAACGGGUAGCAGAAUUGGACAAAAUUACUUAUGAAAGAGACAGUUUCCGACAGGCAUAUGAAGAUCUUCGGAAACAAAGGCUUAAUGAAUUUAUGGCAGGUUUUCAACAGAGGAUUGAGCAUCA | 0.364 |
| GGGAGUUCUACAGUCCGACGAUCGGUGAAGUUCAGUUGGUUCGUCAUAAGGCAUCACAGAAGGUUUAUGCAAUGAAGCUUCUCCGUAAAUUUGAAAUGAUAAAAAGAUCAGAUUCUGCUUUUUUCUGGGAAGAAAGAGAUAUUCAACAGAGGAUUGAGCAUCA | 0.213 |

A few entries again (sample 4):
| Strand | bound/input enrichment [ratio] |
| --- | --- |
| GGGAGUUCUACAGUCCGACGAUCGAGUGUGUGCUUGUGGAGUGGCGAGAUGGAUCAGAGAAGAACAAAGAGUUUCUUCCUCGAUCCGGAUCUUCUAUUGAGCACAUCUCUGUCUCACCUGCAGGAGAUUUGUUCUGUACUUCUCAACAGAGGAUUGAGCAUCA | 0.0375 |
| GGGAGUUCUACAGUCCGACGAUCCUUGCUUUCUGUAGGAGAAUUGAACAGCACUAUUUUGAAGAUCGUGGUAAAGGCAGGCUGUCACCGAGUUAUGUGUUAGUCUCAGGAGUCUUAACUUUUGAAAUAUGUUUUACUUGAAUGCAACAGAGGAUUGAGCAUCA | 0.308 |
